Experimental data collected from several papers.
Numbered parts are unrelated; each lists some results of a single study. Changes are numbered by the printed parent chain.

Set 1 — target: HLF, bZIP domain (human); method: DHFR protein complementation; matrix: yeast; relative to: wild-type JUN-FOS pair; direction: higher = stronger binding; endpoint: binding fitness
Notes: single substitutions, most at no-binding floor
Parent: JUN, bZIP domain (human); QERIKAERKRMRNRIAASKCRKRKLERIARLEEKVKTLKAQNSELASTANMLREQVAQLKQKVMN; partner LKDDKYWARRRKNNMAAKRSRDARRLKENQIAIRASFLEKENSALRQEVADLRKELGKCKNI
I28N: -1.45 natural log
I28M: -1.38 natural log
A40W: -1.44 natural log
K39E: -0.996 natural log
K36P: -1.48 natural log
V56T: -1.52 natural log
V35F: -1.38 natural log
R30K: -1.35 natural log
E33D: -1.38 natural log
I28L: -1.39 natural log
V35R: -1.51 natural log
K36I: -1.26 natural log
A49W: -1.48 natural log
K39D: -1.39 natural log
A40G: -1.47 natural log
M51K: -1.41 natural log
K39I: -1.33 natural log
A46C: -1.45 natural log
A57P: -1.54 natural log
R53V: -1.27 natural log
A49T: -1.38 natural log

Set 2 — method: DHFR PCA, deep sequencing; matrix: yeast; with: (+)-ABA 4.8 µM; relative to: wild-type fitted maximum; direction: higher = stronger binding; endpoint: relative binding score
Target: ABI1, truncated, D143A, DHFR fusion (Arabidopsis thaliana)
Notes: methotrexate growth selection, single substitutions
Parent: PYL1, truncated, DHFR fusion (Arabidopsis thaliana); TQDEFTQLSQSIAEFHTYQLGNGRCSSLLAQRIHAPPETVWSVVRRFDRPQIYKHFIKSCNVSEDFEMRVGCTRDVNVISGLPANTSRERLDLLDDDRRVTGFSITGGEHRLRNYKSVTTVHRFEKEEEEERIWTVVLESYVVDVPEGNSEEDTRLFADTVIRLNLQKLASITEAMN; partner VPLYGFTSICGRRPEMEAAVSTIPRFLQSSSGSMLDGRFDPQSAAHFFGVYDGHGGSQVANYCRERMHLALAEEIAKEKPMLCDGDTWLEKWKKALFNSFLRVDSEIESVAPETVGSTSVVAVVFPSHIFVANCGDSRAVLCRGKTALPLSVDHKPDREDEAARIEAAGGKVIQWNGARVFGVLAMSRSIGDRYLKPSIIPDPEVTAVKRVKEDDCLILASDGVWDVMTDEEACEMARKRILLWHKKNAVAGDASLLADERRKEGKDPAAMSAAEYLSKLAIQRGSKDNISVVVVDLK
V62G: 3.19%
H16V: 5.97%
V44M: 17.6%
I162T: -4.69%
N85E: 83.4%
H110C: 2.35%
I52L: 71.6%
T73D: -0.174%
F15R: 8.48%
L156R: 19.9%
A170D: 4.68%
S140G: -7.14%
F124Y: 78.1%
S27F: 11%
F157M: 18.2%
G21D: 71.4%
Q2K: 72.1%
V145D: -14.2%

Set 3 — method: protein binding microarray; molecule type: double-stranded DNA, one strand shown; matrix: in vitro; tested at: not given; relative to: not given; direction: higher = stronger binding; endpoint: E-score
Target: Histone acetyltransferase KAT6A, winged helix 2, GST fusion (KAT6A, Homo sapiens, UniProt Q92794, residues 85-181)
Notes: 8-mer, flanks averaged, mean of 2 arrays, mostly near background
Construct (chain): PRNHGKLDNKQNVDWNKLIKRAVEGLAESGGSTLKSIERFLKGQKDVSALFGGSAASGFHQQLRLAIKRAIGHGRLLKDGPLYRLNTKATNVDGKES
AGGGTCGC: 0.203
CACAATGC: -0.196
TCAATCGA: -0.18
AGTCCTGA: -0.0886
CCCCTACG: -0.21
CTACGAAC: 0.0544
AATAAAAC: -0.0588
GAGATGAA: 0.0074
ACTATAGC: -0.146
AGTGGTAT: -0.0569
GGTAGCCA: 0.0068
AACTGTTA: -0.0899
GAAGCGTC: -0.0153
AAACTACG: -0.0433
GTTACGCA: -0.0683
AATTTGTG: 0.103
CGTACACG: -0.0206
AGTCAATG: -0.188
GTCATCGA: 0.0124

Set 4 — target: UBE2N UBC core domain (UniProt P61088); method: yeast two-hybrid; matrix: yeast; notes: mostly zero background; relative to: not given; direction: higher = stronger interaction; endpoint: lacZ reporter activity
B1: RNF31 RING domain (UniProt Q96EP0); chain AFLRRLLAQECAVCGWALPHNRMQALTSCECTICPDCFRQHFTIALKEKHITDMVCPACGRPDLTDDTQLL
B2: RNF122 RING domain (UniProt Q9H9V4); chain AKKLQLYGQTCAVCLEDFKGKDELGVLPCQHAFHRKCLVKWLEVRCVCPMCNKPIASPSEAT
B3: MEX3B RING domain (UniProt Q6ZN04); chain SGLRRKGSRDCSVCFESEVIAALVPCGHNLFCMECANRICEKSEPECPVCHTAVTQAIRIF
B4: RNF187 RING domain (UniProt Q5TA31); chain ALPAGPAEAACALCQRAPREPVRADCGHRFCRACVVRFWAEEDGPFPCPECADDCWQRAVEP
B5: MYCBP2 RING domain (UniProt O75592); chain TSLKQDADDMCMICFTEALSAAPAIQLDCSHIFHLQCCRRVLENRWLGPRITFGFISCPICKNKINHIVLKD
B6: TRIM22 RING domain (UniProt Q8IYM9); chain VKVDIEKEVTCPICLELLTEPLSLDCGHSFCQACITAKIKESVIISRGESSCPVCQTRFQPGNLRP
Residues (chain): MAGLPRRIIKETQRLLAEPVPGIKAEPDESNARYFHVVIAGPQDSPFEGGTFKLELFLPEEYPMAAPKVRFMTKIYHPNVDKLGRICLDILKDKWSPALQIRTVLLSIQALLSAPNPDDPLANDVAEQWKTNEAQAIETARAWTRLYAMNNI
RYRQMEERITCPICIDSHIRLVFQCGHGACAPCGSALSACPICRQPIRDRIQIF (MIB2 RING domain (UniProt Q96AX9)): 0
PEELAVNNDDCAICWDSMQAARKLPCGHLFHNSCLRSWLEQDTSCPTCRMSLNIADNNR (AMFR RING domain (UniProt Q9UKV5)): 5040
B1 (RNF31 RING domain): 0
MNDVLENELQCIICSEYFIEAVTLNCAHSFCSYCINEWMKRKIECPICRKDIKSKTYSL (RNF8 RING domain (UniProt O76064)): 0
B2 (RNF122 RING domain): 0
B3 (MEX3B RING domain): 0
B4 (RNF187 RING domain): 0
B5 (MYCBP2 RING domain): 0
B6 (TRIM22 RING domain): 0
AEADPLGRFTCPVCLEVYEKPVQVPCGHVFCSACLQECLKPKKPVCGVCRSALAPGVRAV (RNF114 RING domain (UniProt Q9Y508)): 0

Set 5 — method: RNA Bind-n-Seq; molecule type: RNA; matrix: in vitro; tested at: 365 nM; relative to: no-protein control; direction: higher = stronger binding; endpoint: RBNS enrichment (R)
Target: RNA binding protein fox-1 homolog 2, RRM domain, GST-SBP tag (RBFOX2, Homo sapiens, UniProt O43251-10, residues 100-194)
Notes: natural RNA segment, single round, ends assumed
Shared flanks, not repeated: GGGAGUUCUACAGUCCGACGAUC … UGGAAUUCUCGGGUGCCAA
Residues (chain): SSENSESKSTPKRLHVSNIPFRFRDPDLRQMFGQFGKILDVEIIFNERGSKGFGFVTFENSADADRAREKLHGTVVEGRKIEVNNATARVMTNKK
AGAAAAUCUAUAAGCCUAAGUUAUGGCCCAUAGGUUUUGUUAAGGGUUUUCAGAGUGAUUUUCAGGUUUAAUUUCACUGCCUUUCAUAAGGGUAAAGUUUCACAGCUGAC: 0.462
UUGCCUCCCUUCUUAAAGCUAGCAGGCUCAGUUUACAAACCUGUGAGCUACUGUUGGCUGCUGCCCUCCUUCCCAGUGAAAGGUACAGAGCAAUAAGCAUCAUGCAUCUC: 0.553
UCCUAUUUUAAAAGAGUUUUAGUAACGGUGAGCUGAGAAAUUCUGGUCAUGGUGAGCAGCAGGCGCAAGCCAUGCAGCCUGUGGACUGUGCGCAUUGAUAUGUGGAGGCU: 0.923
UUACAGCUUUGCCAUGUCCCCACCUGCUGGCCUCAGGCUGCCUGGGCCUGGCCAGCUAUCCUUCUCUAUGCAAAUGCGUCAAAGCCAUGACUGCUGGAACCCAAAACUGA: 0.606
GAAGUCUUCUGCUCACCCUUCCUUAAAGAUCAGAUAAACUUGUCAUCCCUUCCCAGCAAUGAUGACAGGAAAAUGGAAGUGGCAAGUUUUCCUUCUAGUAUCCGAAGAAU: 0.328
AAAUCUACGAUUUCUAAUUACCUGGAGUCAGCCCCCACUAGUCUGAGUACUUCGGCAAAUUCACUUUUUGUCUCACCUUCAUCAUAUGGCUCAGUGGUUAAGAGUACCUG: 0.264
UUUCCUUGUCCUUGAGUUUUCCUAUGAAAGAAAUAUAUUUUGUUAGAUUUGAAUUAUCGAGGCAUUUAUUGUGUACUCUUCAACAGUGCUAAAUAAAACAACAUACCAAG: 0.42
UUGCUUUAAACUGUGAUACUUUGAUUUGCUAGAUUGACAAAACUGAUACUAAUAUAAUUAAGUUCAUCUUUGAAAUACAUCUUUGUGCGUAGAGCCAAAAAAAGAGAUAA: 0.451
UUAAGUCACCUUGUGCGAGAACCUCAACCGCACCUAUCUUGGGAACCGGGUAUACCCUUUUCUUUAGCACUGCUAUCCUUUUUGUCUUCAGCACAAAUAAGAUGUUCAAG: 0.703
UCAAAUCUUCAUGAAUGGCAUCACUUGCUUUAGACCCAUUUUUUUUUUAUUGGUCAGAAAUAAAAUGUGACUGCAACUGUGUGCCCUCCCUUGUCGUGAAUUCCCUGUUU: 0.513
ACGCUUAAUUUUAAUUGGGAGAAAGUGAGUGCUUAUUGUAAUGGAGUUAAUUUUAUUGAUAAUAAAUUAUACACCAUGAAACUGCUCUUGGGCUACUGUAGAUUUGUAUC: 0.436
GCUACCCACCCACUGAUGCCGCCUGCUAUUCCUGCUGUUGGAGGCCACUGGACCACUGGGGGCACAAUGGAGACUUCUCUUCAGAAUGGUUUUUGUUCUGUCUACCCUCU: 0.494

Set 6 — target: CCND1, cyclin fold, Cln2 fusion (human); method: yeast growth competition, sequencing; matrix: yeast; notes: weak parent motif; relative to: not given; direction: higher = stronger binding; endpoint: normalised enrichment score
Parent: CDKN1B docking peptide (human); PSACRNLFGPVDH
P10A: 0.421
G9K: 0.604
L7D: 0.515
N6V: 2.42
D12Q: 0.824
S2L: 0.616
D12H: 0.342
H13N: 0.752
P10K: 0.267
P10F: 0.52
P10R: 0.833
R5T: 0.166
H13C: 0.788
P10D: 1.06
A3N: 0.303
C4K: 0.0313
H13S: 1.04
G9L: 0.504

A few entries again (set 1):
A40W: -1.44 natural log
K39E: -0.996 natural log
K36P: -1.48 natural log
V56T: -1.52 natural log
V35F: -1.38 natural log
R30K: -1.35 natural log
E33D: -1.38 natural log
I28L: -1.39 natural log
